Assay results collected from several papers.
JAK2: Tyrosine-protein kinase JAK2 (JAK2, Homo sapiens, UniProt O60674)
UniProt O60674, sequence (whole entry, looked up): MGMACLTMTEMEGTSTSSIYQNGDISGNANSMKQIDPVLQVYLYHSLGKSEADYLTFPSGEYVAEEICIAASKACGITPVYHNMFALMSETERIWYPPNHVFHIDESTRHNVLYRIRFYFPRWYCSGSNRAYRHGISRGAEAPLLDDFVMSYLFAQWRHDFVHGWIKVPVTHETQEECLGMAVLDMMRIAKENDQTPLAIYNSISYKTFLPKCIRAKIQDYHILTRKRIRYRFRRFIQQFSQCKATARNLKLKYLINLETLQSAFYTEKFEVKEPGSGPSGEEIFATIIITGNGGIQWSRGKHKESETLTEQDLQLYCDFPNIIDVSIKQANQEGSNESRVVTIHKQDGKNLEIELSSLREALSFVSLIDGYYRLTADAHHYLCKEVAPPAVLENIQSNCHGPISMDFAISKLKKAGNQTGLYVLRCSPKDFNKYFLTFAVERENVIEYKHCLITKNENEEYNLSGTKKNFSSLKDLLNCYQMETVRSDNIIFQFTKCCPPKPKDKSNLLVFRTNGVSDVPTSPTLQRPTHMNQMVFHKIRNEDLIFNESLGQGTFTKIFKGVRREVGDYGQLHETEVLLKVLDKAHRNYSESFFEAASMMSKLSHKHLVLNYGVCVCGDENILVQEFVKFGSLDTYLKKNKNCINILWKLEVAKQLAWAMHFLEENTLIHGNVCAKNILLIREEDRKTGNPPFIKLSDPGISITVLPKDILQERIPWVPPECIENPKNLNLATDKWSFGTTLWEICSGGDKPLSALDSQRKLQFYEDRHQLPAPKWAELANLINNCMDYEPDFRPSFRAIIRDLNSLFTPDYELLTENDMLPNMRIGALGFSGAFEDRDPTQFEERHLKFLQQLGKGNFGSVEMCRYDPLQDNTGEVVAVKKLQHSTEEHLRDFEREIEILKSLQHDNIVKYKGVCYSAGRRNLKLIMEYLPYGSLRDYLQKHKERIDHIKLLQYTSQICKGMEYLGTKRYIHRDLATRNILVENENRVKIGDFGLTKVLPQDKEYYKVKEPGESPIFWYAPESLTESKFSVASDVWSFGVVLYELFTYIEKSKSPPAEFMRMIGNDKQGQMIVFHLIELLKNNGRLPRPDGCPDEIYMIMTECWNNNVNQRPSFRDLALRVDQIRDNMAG

Cc1cnc(Nc2ccc3c(c2)CCN(C(=O)/C=C/C(=O)C(C)C)C3)nc1-c1cnn(C(C)C)c1 — IC50 (JAK2; enzyme activity, inhibitor, ADP detection): 11.8 nM
Cc1c[nH]c2nccc(-c3ccc(C(=O)N[C@@H]4c5c(F)cc(C(F)F)cc5C[C@@H]4O)cn3)c12 — Kd (Tyrosine-protein kinase JAK2, JH1 (JAK2, Homo sapiens, UniProt O60674); binding, competition with immobilised ligand): 27.5 nM
CCN(CC)CC(=O)Nc1cccc(-n2cc(-c3ccc4ccc(-c5cn(-c6cccc(NC(=O)CN(CC)CC)c6)nn5)cc4c3)nn2)c1 — IC50 (JAK2; enzyme activity, inhibitor): > 10000 nM
Cc1cnc(Nc2ccc3c(c2)CCN(C(=O)/C=C/C(=O)c2ccc(Cl)cc2)C3)nc1-c1cnn(C(C)C)c1 — IC50 (JAK2; enzyme activity, inhibitor, ADP detection): 0.41 nM
Cc1cnc2nc1Nc1cccc(c1)COCCCCOCc1cc(ccc1OCCN1CCCC1)N2 — IC50 (JAK2; enzyme activity, inhibitor, FRET): 240 nM
Cc1cnc(Nc2ccc(C3CCN(C)CC3)c(F)c2)nc1Nc1ccc(Cl)c(NS(=O)(=O)C(C)(C)C)c1 — IC50 (JAK2; enzyme activity, inhibitor): 3.9 nM
Cc1nn(-c2cccc(N)c2)c(=O)c2cnc(Nc3ccc(N4CCNCC4)cc3)nc12 — IC50 (JAK2; enzyme activity, inhibitor): > 10000 nM
Cc1cnc2nc1Nc1cccc(c1)COC/C=C/COCc1cc(ccc1OCCN1CCCCC1)N2 — IC50 (JAK2; enzyme activity, inhibitor, FRET): 1.65 nM
CCC(CC)C(=O)/C=C/C(=O)N1CCc2cc(Nc3ncc(C)c(-c4cnn(C(C)C)c4)n3)ccc2C1 — IC50 (JAK2; enzyme activity, inhibitor, ADP detection): 9.65 nM
